Assay results gathered from unrelated publications.
A part holds a random share of what one study measured. ± marks the error that the study gave.
Chain of UniProt P42336 (whole entry, unmodified, looked up): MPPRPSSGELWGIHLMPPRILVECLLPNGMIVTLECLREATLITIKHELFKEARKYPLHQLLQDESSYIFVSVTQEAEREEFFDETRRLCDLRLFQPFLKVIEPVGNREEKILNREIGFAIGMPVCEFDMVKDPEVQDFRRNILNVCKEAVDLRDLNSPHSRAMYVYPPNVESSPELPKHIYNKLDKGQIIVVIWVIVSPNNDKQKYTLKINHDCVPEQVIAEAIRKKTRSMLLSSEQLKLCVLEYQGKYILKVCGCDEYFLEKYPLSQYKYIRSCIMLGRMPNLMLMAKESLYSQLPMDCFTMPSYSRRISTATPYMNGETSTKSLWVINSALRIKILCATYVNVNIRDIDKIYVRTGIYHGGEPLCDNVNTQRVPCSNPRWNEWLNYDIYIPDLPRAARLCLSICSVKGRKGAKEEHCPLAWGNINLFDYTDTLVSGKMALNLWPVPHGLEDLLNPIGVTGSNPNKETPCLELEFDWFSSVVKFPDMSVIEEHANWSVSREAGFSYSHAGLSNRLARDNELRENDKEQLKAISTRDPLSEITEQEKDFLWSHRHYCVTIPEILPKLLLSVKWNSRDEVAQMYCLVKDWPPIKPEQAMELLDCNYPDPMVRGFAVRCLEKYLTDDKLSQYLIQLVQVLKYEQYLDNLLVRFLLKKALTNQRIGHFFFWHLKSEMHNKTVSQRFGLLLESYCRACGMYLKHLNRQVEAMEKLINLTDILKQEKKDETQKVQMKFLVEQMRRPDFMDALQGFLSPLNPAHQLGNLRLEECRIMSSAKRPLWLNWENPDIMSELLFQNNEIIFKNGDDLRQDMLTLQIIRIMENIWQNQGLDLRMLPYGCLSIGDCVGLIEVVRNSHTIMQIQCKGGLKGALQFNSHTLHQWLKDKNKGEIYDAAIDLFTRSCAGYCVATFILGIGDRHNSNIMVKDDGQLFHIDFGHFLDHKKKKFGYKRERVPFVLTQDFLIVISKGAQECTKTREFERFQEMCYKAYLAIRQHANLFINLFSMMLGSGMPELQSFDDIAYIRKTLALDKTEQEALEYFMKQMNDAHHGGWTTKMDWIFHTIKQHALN
Chain of UniProt O15530 (whole entry, looked up): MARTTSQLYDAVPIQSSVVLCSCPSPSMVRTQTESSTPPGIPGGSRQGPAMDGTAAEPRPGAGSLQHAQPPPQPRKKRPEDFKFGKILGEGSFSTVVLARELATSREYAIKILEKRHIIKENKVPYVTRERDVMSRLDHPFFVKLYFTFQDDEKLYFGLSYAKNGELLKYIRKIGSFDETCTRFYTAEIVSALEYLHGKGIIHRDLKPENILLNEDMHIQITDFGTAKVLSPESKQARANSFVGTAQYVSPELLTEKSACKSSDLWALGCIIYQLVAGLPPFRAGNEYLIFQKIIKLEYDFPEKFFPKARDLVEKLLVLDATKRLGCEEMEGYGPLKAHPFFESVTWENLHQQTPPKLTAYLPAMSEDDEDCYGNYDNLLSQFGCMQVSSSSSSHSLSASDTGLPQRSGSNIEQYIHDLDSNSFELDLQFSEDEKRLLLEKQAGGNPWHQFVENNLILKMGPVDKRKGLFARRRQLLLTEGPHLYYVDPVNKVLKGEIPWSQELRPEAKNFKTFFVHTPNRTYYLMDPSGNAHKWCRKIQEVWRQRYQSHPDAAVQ
Chain of UniProt Q13555 (whole entry, looked up): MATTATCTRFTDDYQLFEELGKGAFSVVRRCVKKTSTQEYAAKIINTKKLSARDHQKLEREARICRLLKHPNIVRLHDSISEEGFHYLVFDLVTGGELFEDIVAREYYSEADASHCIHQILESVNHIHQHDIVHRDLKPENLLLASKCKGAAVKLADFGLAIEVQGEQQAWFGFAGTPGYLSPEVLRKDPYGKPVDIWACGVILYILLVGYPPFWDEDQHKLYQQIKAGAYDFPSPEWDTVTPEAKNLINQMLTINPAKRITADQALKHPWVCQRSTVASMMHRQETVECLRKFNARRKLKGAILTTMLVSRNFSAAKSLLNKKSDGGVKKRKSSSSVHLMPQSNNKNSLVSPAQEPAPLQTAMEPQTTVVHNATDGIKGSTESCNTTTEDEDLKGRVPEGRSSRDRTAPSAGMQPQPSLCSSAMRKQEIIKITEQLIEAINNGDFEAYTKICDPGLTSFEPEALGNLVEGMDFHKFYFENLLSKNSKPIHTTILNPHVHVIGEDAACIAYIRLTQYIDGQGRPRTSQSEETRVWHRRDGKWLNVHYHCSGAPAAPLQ
Chain of UniProt Q15418 (whole entry, looked up): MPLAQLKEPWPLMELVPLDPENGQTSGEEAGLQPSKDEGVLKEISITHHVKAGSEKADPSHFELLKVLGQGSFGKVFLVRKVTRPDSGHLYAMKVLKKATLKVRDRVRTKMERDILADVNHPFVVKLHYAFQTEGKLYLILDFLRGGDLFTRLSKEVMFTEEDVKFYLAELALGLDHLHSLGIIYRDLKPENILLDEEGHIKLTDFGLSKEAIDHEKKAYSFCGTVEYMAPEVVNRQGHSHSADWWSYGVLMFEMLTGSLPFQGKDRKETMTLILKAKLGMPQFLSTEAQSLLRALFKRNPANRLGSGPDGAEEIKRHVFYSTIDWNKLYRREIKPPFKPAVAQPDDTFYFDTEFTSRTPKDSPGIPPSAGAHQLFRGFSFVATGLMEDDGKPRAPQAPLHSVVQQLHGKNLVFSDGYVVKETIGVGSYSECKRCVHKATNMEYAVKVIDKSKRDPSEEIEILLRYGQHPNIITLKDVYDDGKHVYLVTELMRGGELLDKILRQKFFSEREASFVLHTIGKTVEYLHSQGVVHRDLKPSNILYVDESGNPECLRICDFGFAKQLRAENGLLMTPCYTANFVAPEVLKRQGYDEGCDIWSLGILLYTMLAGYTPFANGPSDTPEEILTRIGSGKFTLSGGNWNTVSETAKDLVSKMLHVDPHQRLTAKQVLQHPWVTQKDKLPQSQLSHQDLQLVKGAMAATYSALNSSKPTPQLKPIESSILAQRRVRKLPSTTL
Chain of UniProt Q13546 (whole entry, looked up): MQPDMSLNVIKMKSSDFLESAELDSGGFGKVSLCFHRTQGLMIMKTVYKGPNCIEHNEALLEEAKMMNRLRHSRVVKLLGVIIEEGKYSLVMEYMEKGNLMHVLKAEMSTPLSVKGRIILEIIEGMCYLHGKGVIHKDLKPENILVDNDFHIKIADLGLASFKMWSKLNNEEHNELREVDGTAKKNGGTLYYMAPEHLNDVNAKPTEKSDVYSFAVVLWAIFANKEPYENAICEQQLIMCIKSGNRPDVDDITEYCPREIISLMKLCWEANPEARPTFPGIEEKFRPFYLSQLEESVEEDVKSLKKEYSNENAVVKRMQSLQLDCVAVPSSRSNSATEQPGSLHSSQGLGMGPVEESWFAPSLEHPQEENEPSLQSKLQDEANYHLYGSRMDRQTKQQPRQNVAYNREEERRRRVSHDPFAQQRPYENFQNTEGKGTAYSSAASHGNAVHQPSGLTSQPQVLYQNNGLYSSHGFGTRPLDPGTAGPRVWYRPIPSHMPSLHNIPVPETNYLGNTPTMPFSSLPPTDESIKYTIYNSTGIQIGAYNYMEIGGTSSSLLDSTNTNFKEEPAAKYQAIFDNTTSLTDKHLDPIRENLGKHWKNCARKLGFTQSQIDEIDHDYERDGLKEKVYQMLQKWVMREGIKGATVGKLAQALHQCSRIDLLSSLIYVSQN
Chain of UniProt O75460 (whole entry, looked up): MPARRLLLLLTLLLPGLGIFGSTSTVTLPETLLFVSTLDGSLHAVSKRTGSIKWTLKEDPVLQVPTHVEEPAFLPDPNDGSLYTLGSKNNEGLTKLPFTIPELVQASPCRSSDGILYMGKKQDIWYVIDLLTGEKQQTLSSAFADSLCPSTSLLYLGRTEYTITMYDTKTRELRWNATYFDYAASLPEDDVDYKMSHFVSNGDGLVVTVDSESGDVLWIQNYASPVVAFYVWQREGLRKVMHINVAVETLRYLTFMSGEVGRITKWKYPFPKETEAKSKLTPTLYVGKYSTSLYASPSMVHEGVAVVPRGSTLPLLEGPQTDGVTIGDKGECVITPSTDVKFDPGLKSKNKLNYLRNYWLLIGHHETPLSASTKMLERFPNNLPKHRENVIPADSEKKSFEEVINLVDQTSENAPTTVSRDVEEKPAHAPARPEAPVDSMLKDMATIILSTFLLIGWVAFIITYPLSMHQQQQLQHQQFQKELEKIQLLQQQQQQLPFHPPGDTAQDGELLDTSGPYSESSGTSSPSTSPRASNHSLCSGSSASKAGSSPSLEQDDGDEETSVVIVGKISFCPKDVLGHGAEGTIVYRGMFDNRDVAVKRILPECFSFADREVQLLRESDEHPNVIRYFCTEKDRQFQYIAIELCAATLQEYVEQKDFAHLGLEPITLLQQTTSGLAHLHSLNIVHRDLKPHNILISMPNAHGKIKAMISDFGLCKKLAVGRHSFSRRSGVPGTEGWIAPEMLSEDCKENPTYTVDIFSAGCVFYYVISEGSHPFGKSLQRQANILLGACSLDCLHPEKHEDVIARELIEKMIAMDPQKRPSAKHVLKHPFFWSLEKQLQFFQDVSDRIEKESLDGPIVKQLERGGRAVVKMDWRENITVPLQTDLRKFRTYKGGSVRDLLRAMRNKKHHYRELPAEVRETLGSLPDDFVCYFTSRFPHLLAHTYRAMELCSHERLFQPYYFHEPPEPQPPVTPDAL
Chain of UniProt P48729 (whole entry, looked up): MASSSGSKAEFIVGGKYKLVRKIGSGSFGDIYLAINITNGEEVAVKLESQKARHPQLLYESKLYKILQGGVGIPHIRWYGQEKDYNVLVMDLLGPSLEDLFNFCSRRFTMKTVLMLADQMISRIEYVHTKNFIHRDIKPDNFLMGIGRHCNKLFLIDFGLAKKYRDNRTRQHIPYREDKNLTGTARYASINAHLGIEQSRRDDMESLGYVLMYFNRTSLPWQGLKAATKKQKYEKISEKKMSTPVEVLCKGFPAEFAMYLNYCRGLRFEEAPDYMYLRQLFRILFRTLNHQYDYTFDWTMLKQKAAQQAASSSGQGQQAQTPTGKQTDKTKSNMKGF

Study 1
Structure (SMILES): C[C@H](c1ccnc(Nc2nc3ccc(-c4cc(N(C)C)ncn4)cc3[nH]2)c1)N1CCN(C(=O)CC(F)(F)F)CC1
Read-out: cell-free assay
Technique: competition with immobilised ligand
Tested at: 0.1 µM
target | remaining binding [%]
Serine/threonine-protein kinase/endoribonuclease IRE1 (ERN1, Homo sapiens, UniProt O75460) | 86
Epidermal growth factor receptor (EGFR, Homo sapiens, UniProt P00533, G719C) | 84
Mitogen-activated protein kinase kinase kinase 2 (MAP3K2, Homo sapiens, UniProt Q9Y2U5) | 100
G protein-coupled receptor kinase 4 (GRK4, Homo sapiens, UniProt P32298) | 100
Phosphatidylinositol 4,5-bisphosphate 3-kinase catalytic subunit alpha isoform (PIK3CA, Homo sapiens, UniProt P42336, C420R) | 100
3-phosphoinositide-dependent protein kinase 1 (PDPK1, Homo sapiens, UniProt O15530) | 76
Calcium/calmodulin-dependent protein kinase type II subunit gamma (CAMK2G, Homo sapiens, UniProt Q13555) | 77
Ribosomal protein S6 kinase alpha-1, C-terminal kinase domain (RPS6KA1, Homo sapiens, UniProt Q15418) | 82
Mitogen-activated protein kinase kinase kinase 12 (MAP3K12, Homo sapiens, UniProt Q12852) | 100
Casein kinase I isoform alpha (CSNK1A1, Homo sapiens, UniProt P48729) | 100
Receptor-interacting serine/threonine-protein kinase 1 (RIPK1, Homo sapiens, UniProt Q13546) | 95

Study 2
Organism: Sarcocystis neurona
Read-out: parasite growth
Tested at: 10 µM
Time: 96 h
SMILES | inhibition [%]
CCN1CCCC1CNC(=O)c1cc(S(=O)(=O)CC)c(N)cc1OC (stereo not drawn) | -4.1
CC1=NS(=O)(=O)c2cc(Cl)ccc2N1 | -9.4
CCOC(=O)C1=C(COCCN)NC(C)=C(C(=O)OC)C1c1ccccc1Cl (stereo not drawn) | -3.8
CC(=O)OCC(=O)[C@@]1(O)CC[C@H]2[C@@H]3CCC4=CC(=O)C=C[C@]4(C)[C@H]3[C@@H](O)C[C@@]21C | -5.5
CN(CCOc1ccc(NS(C)(=O)=O)cc1)CCc1ccc(NS(C)(=O)=O)cc1 | -10.1
Nc1ncnc2c1ncn2[C@@H]1O[C@H](CO)[C@@H](O)[C@@H]1O | -14.7
CC/C(=C(\c1ccccc1)c1ccc(OCCN(C)C)cc1)c1ccccc1 | -3.3
Cc1onc(-c2ccccc2)c1-c1ccc(S(N)(=O)=O)cc1 | -15.7
CCOc1ccc2ccccc2c1C(=O)N[C@@H]1C(=O)N2[C@@H]1SC(C)(C)[C@@H]2C(=O)O | -13
Nc1nc2c(ncn2COCCO)c(=O)[nH]1 | -8.8
CC(=O)OCC(=O)[C@@]12OC3(CCCC3)O[C@@H]1C[C@H]1[C@@H]3CCC4=CC(=O)C=C[C@]4(C)[C@@]3(F)[C@@H](O)C[C@@]12C | -1.7
NC(=O)c1cccnc1 | -0.753

Study 3
SMILES: COc1cc(C(=O)N2CCC(N3CCN(C)CC3)CC2)ccc1Nc1ncc2c(n1)N(C)c1ccccc1C(=O)N2C
Read-out: kinase activity
target | tested at | remaining activity [%]
RSK2 | 10 µM | 59 ± 33
GCK | 1 µM | 93 ± 5
DYRK2 | 10 µM | 98 ± 5
IR | 1 µM | 104 ± 8
DAPK1 | 10 µM | 77 ± 2
SYK | 1 µM | 71 ± 5

Study 4
Target: Dual serine/threonine and tyrosine protein kinase (DSTYK, Homo sapiens, UniProt Q6XUX3)
Read-out: enzyme activity
Mode: inhibitor
Tested at: 0.5 µM
Reference: control
Residues (Q6XUX3 1-929): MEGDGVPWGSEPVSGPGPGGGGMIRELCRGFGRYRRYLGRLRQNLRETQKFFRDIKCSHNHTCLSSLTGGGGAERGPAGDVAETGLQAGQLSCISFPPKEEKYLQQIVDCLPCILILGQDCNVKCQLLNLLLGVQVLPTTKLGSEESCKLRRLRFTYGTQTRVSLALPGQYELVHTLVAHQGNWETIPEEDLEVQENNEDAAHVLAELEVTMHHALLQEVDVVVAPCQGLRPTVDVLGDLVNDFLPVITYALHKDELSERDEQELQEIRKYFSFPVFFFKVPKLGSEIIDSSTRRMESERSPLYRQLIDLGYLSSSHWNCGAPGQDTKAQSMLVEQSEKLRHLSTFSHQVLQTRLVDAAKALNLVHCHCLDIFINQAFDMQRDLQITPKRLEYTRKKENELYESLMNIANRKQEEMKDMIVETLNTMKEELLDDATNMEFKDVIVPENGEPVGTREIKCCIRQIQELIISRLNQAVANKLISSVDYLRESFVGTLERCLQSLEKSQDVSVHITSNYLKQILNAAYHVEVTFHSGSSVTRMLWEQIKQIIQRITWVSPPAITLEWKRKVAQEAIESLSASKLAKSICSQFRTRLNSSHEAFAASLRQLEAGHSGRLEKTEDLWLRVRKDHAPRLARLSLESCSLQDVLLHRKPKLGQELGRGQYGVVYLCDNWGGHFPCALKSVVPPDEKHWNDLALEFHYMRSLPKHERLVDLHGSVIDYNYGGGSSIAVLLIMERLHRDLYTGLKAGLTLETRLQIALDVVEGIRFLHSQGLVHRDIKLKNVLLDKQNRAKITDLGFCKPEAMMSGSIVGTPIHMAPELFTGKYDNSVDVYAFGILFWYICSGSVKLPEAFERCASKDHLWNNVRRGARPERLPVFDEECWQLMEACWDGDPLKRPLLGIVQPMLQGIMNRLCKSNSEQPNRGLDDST
SMILES | remaining activity
O=C(c1cc2cc(O)ccc2[nH]1)c1cc2cc(O)ccc2[nH]1 | 95.5%
O=C1NC(=O)c2c1c1c3ccccc3[nH]c1c1[nH]c3cc(Br)ccc3c21 | 65.6%
N#Cc1cnc2cnc(NCc3cccnc3)cc2c1Nc1ccc(F)c(Cl)c1 | 87.3%
O=c1cc(N2CCOCC2)oc2c(-c3ccccc3)cccc12 | 113%
c1ccc(-c2n[nH]c3c2oc2ccccc23)cc1 | 82.9%
CCCNC(=O)Nc1ccc(Oc2ncnc3cc(OC)c(OC)cc23)cc1Cl | 88.6%
CCCCc1c(-c2ccc(OC)cc2)[nH]c2nccnc12 | 97.6%
O=C1Nc2ccccc2/C1=C\c1c(Cl)[nH]c2ccccc12 | 95.7%
COc1cccc(-c2cc(=O)c3ccccc3o2)c1N | 97.1%
O=C1Cc2c([nH]c3ccc(Br)cc23)-c2ccccc2N1 | 98.6%

Repeated from above (study 4):
SMILES | remaining activity
O=C1NC(=O)c2c1c1c3ccccc3[nH]c1c1[nH]c3cc(Br)ccc3c21 | 65.6%
O=C(c1cc2cc(O)ccc2[nH]1)c1cc2cc(O)ccc2[nH]1 | 95.5%
O=C1Nc2ccccc2/C1=C\c1c(Cl)[nH]c2ccccc12 | 95.7%
COc1cccc(-c2cc(=O)c3ccccc3o2)c1N | 97.1%
